Measurements gathered from unrelated publications.
Compare with care: the assays were run in different laboratories. ± gives the spread as reported.

Compound	test	test system	setting	scale	quantity	value
CC(C)[C@H]1NC(=O)C[C@H]2/C=C/CCSSC[C@@H](NC1=O)C(=O)N[C@H](Cc1cccc3ccccc13)C(=O)NCC(=O)O2		nude mouse, blood	oral, 12 mg/kg		half-life	24 min
CCN(Cc1ccccc1)C(=O)CCc1nc(CN2CCN(C(=O)Cc3ccc(OC)c(OC)c3)CC2)no1		rat, brain	intravenous, 1 mg/kg, 30 min		concentration	3.4 ng/g
CN(C)C(CNC(=O)Nc1cc(C(F)(F)F)ccc1N1CCOCC1)c1ccncc1 (stereo not shown)		mouse, serum	intraperitoneal, 180 mg/kg single dose		serum globulin	1.5 g/dL
CCCC[C@H]1C(=O)N(C)[C@@H](CCCC)C(=O)N[C@@H](CCCNC(=O)CN2CCN(CC(=O)O)CCN(CC(=O)O)CCN(CC(=O)O)CC2)C(=O)N[C@H](C(=O)NCC(N)=O)CSCC(=O)N[C@@H](Cc2ccc(O)cc2)C(=O)N(C)[C@@H](C)C(=O)N[C@@H](CC(N)=O)C(=O)N2CCC[C@H]2C(=O)N[C@@H](Cc2c[nH]cn2)C(=O)N[C@@H](CC(C)C)C(=O)N(C)CC(=O)N[C@@H](Cc2c[nH]c3ccccc23)C(=O)N[C@@H](CO)C(=O)N[C@@H](Cc2c[nH]c3ccccc23)C(=O)N1C [gallium-68 labelled]		NOD/SCID mice, CHO-hPD-L1 xenograft, tumour over blood	iv, dose not given, 120 min	baseline: tumour over blood	tissue-to-tissue ratio	2.61 ± 0.78
CCCO[C@H]1[C@H](O)[C@@H](N)[C@@H](O[C@H]2[C@H](O[C@@H]3O[C@H](CO)[C@@H](O[C@H]4O[C@@H](CN)[C@@H](O)[C@H](O)[C@H]4N)[C@H]3O)[C@@H](O)[C@H](N)C[C@@H]2N)O[C@@H]1CO		guinea pig	chronic ototoxicity study		tolerability	not toxic
CN(C)CCN(Cc1ccccc1)C(=O)c1cc(-c2ccc(F)cc2)n2nc(C(C)(C)C)cc2n1	general toxicity	CD-1 mouse	intravenous, single dose		MTD	100 mg/kg
COc1cc(NC(=O)C(=O)c2c(C)n(Cc3ccc(Cl)cc3)c3ccc(C)cc23)ccn1		female cynomolgus monkey, plasma	oral, 10 mg/kg		AUC	3490 ng·h/mL
CC[C@H](C)C(=O)N1CCC(NC(=O)Nc2ccc(OC(F)(F)F)c(F)c2)CC1		healthy volunteers, both sexes	oral, 8 mg, fasted state		subjects with treatment-emergent headache	0%
[3H]c1sc(C)nc1C=C(C)C1CC2C(CCCC(C)C(O)C(C)C(=O)C(C)(C)C(O)CC(=O)O1)N2CCO (stereo not shown)		CD2F1 mice, plasma	intravenous, 2.2 nmol/kg, 6 h		plasma concentration	30.2 ± 7.7 ng/mL
CCCCCCCCCCCCC(=O)O.O=C1CCCC2C3CCCN4CCCC(CN12)C34 (stereo not shown)		water	concentration not given, 293.15 K		limiting apparent molar volume	420 ± 0.6 cm³/mol

Excerpt of the above:
Compound	test	test system	setting	scale	quantity	value
CCCO[C@H]1[C@H](O)[C@@H](N)[C@@H](O[C@H]2[C@H](O[C@@H]3O[C@H](CO)[C@@H](O[C@H]4O[C@@H](CN)[C@@H](O)[C@H](O)[C@H]4N)[C@H]3O)[C@@H](O)[C@H](N)C[C@@H]2N)O[C@@H]1CO		guinea pig	chronic ototoxicity study		tolerability	not toxic
